Assay results of several laboratories.
A part holds a random share of what one study measured. Positions count from the first letter of the parent shown.
Chain of UniProt P35367 (whole entry, looked up): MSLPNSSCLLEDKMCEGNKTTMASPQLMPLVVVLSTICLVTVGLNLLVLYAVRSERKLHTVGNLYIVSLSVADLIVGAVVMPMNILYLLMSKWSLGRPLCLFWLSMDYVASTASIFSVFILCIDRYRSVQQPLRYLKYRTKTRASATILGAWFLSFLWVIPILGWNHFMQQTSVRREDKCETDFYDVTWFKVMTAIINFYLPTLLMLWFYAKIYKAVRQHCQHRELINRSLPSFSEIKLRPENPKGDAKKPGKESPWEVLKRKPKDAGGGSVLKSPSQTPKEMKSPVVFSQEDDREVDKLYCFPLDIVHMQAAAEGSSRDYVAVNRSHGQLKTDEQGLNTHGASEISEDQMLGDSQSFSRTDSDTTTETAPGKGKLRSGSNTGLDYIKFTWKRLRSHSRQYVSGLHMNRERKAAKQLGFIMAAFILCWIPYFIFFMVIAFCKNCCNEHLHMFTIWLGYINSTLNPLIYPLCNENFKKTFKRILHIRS

Set 1 — technique: RNA Bind-n-Seq; molecule type: RNA; matrix: in vitro; concentration: not given; setting: RNA with constant flanks, ends assumed; relative to: input RNA pool; direction: higher = stronger binding
Target: RING finger protein unkempt homolog, zinc fingers 1-6, GST-SBP tag (UNK, Homo sapiens, UniProt Q9C0B0, residues 30-357)
Residues (chain): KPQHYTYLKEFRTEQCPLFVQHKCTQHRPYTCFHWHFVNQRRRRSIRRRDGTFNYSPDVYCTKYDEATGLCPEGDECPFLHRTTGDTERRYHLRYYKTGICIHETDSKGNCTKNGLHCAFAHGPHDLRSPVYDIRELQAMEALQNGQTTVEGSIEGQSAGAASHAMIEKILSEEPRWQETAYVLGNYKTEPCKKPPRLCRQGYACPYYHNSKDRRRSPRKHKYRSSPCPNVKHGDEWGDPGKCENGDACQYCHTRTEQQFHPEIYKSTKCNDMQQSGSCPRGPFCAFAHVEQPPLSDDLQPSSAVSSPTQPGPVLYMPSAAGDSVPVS
| Strand | bound/input enrichment [ratio] |
| --- | --- |
| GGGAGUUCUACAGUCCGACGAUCGAAUGCAGUUAUAUUUGGACCAGAAGGGACACCUUUUGAAGAUGGUACUUUUAAACCCGUAACCGAAUUUUCUGAAGAAUAUCCAAAUAAACCACCAACUGUUAGGUUUUUAUCCAAAAUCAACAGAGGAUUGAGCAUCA | 0.226 |
| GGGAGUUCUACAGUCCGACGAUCGAGGUAUUGGAAGCCUUGUAUGAUGGUAGCCUAGGAGACUGUAAAGAAGCUGCUGAAAUUUACCGAGCAAAUUGUCAUAAGCUUUUCCCUUAUGCUUUGGCUUUCAUGCCUCCUGGAUAUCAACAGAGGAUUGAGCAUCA | 0.226 |
| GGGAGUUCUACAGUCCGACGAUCUGGCAAGGGUUGUGUAAAUCUACAUGGGGUCACUGCUCUAUAUACAAUAAGAACCCACCUUCCGGAUUUUCUUUUAGAAAAUUGUAUAUGCAGCUAGAUGAGGGAAGCCUCACCUUUAAUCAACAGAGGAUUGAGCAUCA | 1.26 |
| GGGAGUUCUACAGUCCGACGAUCGUUAAUCAUGAUUCAGAAGAUCUAGCUUCACCCUCUGAGUAUCCAGAAAAUGGAGAAAGAUUCCGCUUCCUGAGCAAACCUGUUGAUGAGAACAAUCAGCAGGAUGGAGAAGAUGACUCUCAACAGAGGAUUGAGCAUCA | 0.0855 |
| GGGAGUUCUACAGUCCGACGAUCCCUCUGGCCACAUAUGCCCCUGUCAUCUCUGCUGAGAAAGCCUACCACGAACAGCUUACUGCCGCAGAGAUCACCAAUGCUUGCUUUGAGCCAGCCAACCAGAUGGUGAAAUGUGACCCUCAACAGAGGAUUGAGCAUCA | 0.0939 |
| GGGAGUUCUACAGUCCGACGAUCAUCCACAGUCUGAUGGGCAACUUUGAAAAUGCUGUGGACUACUUCCACACAGCCCUUGGUCUCCGGCGAGAUGAUACAUUUUCUGUUACAAUGCUUGGUCAUUGCAUCGAAAUGUACAUUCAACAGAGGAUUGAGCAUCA | 0.123 |
| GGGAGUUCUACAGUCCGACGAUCUCCACAGAAGCCUCAUCCCAAGAACAUCAACACAGAGCUCCCGACGCUGGGAUUGUAUCCCGUAUACCUUUACAAAGACUUUUUAAACCAAAGGACAUGGACUGUUGGGAAGUUCAGACUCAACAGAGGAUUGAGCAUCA | 0.353 |
| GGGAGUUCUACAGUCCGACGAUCGUGGCUGCUUUCUUUGGUACUCUCUCUCCACUCCCAACGUAGCUGUGACGUGUUGCCGUUUUCCGCUGUUUGUAAAAUGUUAAAAAAAAAAAAAGUUAAAAGGAAGUUAAACUAACCACACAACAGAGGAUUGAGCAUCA | 1.56 |

Set 2 — target: MAFK, bZIP domain (human); technique: DHFR protein complementation; matrix: yeast; relative to: wild-type JUN-FOS pair; direction: higher = stronger binding
Setting: single substitutions, most at no-binding floor
Starting sequence: JUN, bZIP domain (human); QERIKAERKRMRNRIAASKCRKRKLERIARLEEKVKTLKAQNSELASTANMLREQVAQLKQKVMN; partner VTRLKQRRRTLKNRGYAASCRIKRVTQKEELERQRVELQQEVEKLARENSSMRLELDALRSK
| Variant | binding fitness [natural log] |
| --- | --- |
| S43Q | -1.52 |
| I28M | -1.43 |
| A40H | -1.36 |
| S47V | -1.45 |
| E54L | -1.43 |
| K39V | -1.42 |
| V35C | -1.57 |
| L38S | -1.52 |

Other studies, line by line
| Molecule | tested on | assay | system | conditions | quantity | value |
| --- | --- | --- | --- | --- | --- | --- |
| ATP5PF (Homo sapiens, UniProt P18859) | ATP5PB (Homo sapiens, UniProt P24539) | cross-linking MS |  | hits only | interaction screen | cross-linked |
| CCC(F)(F)c1cc(N2CCC(S(C)(=O)=O)CC2)nc2sc(C(N)=O)c(N)c12 | Histamine H1 receptor (HRH1, Homo sapiens, UniProt P35367) | ligand displacement |  | 10 µM | inhibition | 9.22% |
| PDIA4 (Homo sapiens, UniProt P13667) | PDIA3 (Homo sapiens, UniProt P30101) | cross-linking MS | cell fractions | together with: DSSO | cross-linked residues | K366 to K218 |
| WDR36 (Homo sapiens, UniProt Q8NI36) | NOP58 (Homo sapiens, UniProt Q9Y2X3) | cross-linking MS | cell fractions | together with: DSSO | cross-linked residues | K182 to K441 |
| KHDRBS3 (Homo sapiens, UniProt O75525) | KHDRBS1 (Homo sapiens, UniProt Q07666) | cross-linking MS |  | hits only | interaction screen | cross-linked |

Repeated from above (set 2):
| Variant | binding fitness [natural log] |
| --- | --- |
| I28M | -1.43 |
| A40H | -1.36 |
| S47V | -1.45 |
